Published values collected from several papers.
Every numbered part comes from another study and shows a few of its results, in no order.
Sequence of UniProt Q96Q40 (whole entry, looked up): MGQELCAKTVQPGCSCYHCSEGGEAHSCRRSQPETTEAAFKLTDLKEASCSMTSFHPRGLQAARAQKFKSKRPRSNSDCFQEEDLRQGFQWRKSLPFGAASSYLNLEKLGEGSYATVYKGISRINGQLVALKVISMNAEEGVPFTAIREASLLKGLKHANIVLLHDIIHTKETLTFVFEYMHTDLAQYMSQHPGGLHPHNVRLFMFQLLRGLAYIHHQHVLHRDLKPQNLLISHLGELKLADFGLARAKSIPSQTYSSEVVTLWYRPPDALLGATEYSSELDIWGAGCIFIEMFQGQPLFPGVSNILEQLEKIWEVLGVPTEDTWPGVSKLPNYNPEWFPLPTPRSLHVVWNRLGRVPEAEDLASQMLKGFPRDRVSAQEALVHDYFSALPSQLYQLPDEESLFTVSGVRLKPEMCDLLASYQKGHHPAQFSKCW
Sequence of UniProt Q9H3Y6 (whole entry, looked up): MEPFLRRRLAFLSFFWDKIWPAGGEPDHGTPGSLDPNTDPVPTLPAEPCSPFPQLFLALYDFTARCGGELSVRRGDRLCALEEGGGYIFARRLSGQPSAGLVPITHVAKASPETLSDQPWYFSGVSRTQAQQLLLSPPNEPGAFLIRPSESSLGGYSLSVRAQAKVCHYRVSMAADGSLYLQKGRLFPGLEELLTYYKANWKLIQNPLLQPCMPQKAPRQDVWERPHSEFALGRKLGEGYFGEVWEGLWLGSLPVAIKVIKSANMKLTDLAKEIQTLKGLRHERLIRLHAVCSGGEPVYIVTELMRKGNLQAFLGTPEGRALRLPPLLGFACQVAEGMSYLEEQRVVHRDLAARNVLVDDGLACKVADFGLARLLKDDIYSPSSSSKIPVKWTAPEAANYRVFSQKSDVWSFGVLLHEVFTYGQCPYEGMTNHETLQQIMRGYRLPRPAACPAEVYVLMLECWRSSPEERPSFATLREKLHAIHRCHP
Sequence of UniProt Q52WX2 (whole entry, looked up): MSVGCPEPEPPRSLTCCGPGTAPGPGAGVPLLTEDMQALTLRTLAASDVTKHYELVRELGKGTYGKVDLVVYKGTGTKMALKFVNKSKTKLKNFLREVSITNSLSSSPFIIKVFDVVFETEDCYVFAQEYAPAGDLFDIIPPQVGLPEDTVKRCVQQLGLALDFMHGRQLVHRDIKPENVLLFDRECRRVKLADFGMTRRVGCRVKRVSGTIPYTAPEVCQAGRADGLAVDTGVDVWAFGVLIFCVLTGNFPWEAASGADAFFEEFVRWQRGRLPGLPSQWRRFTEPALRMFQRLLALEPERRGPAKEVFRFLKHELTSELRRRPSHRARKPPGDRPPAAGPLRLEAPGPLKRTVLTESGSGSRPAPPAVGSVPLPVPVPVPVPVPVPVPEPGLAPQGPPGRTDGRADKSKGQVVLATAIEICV
Sequence of UniProt Q86Z02 (whole entry, looked up): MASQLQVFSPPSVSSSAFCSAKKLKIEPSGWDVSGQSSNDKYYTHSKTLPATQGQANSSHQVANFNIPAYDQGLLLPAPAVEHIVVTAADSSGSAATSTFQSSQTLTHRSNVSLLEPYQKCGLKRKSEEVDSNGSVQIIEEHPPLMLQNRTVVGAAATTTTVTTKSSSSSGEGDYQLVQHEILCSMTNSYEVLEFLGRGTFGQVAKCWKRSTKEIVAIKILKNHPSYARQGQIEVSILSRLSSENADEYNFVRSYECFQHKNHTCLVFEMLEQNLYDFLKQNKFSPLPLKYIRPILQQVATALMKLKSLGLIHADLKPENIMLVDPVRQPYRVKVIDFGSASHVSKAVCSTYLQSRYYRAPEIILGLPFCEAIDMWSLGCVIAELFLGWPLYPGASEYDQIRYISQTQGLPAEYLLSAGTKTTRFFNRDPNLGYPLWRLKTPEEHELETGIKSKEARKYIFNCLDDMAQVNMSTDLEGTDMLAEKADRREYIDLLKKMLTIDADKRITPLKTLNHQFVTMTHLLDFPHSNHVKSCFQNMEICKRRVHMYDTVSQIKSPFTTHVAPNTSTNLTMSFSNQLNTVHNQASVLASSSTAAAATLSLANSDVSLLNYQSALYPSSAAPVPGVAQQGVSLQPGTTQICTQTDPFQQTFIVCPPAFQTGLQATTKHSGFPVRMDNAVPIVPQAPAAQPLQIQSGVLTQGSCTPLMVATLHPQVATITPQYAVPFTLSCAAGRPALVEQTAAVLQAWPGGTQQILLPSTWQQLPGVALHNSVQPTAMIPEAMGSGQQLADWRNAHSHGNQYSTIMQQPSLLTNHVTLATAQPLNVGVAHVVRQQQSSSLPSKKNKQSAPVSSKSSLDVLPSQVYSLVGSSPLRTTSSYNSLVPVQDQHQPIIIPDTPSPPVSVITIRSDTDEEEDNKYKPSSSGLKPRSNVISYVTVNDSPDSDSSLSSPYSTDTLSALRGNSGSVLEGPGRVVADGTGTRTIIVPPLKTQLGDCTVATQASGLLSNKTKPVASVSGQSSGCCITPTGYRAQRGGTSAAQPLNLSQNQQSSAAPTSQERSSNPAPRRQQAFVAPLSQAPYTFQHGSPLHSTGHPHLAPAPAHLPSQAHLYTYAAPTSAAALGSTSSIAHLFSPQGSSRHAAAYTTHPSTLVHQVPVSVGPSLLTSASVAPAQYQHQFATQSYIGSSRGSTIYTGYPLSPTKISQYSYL
Sequence of UniProt P51817 (whole entry, looked up): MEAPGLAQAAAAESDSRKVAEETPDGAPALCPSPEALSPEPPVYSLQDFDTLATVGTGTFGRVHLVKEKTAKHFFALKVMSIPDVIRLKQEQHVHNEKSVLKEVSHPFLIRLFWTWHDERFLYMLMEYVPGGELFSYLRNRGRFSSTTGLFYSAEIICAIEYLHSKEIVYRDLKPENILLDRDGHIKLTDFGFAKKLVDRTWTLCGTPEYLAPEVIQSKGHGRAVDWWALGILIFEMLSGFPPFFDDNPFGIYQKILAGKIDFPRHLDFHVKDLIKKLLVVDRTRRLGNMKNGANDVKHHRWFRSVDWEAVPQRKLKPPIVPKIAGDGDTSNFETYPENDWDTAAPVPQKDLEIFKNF
Sequence of UniProt Q12851 (whole entry, looked up): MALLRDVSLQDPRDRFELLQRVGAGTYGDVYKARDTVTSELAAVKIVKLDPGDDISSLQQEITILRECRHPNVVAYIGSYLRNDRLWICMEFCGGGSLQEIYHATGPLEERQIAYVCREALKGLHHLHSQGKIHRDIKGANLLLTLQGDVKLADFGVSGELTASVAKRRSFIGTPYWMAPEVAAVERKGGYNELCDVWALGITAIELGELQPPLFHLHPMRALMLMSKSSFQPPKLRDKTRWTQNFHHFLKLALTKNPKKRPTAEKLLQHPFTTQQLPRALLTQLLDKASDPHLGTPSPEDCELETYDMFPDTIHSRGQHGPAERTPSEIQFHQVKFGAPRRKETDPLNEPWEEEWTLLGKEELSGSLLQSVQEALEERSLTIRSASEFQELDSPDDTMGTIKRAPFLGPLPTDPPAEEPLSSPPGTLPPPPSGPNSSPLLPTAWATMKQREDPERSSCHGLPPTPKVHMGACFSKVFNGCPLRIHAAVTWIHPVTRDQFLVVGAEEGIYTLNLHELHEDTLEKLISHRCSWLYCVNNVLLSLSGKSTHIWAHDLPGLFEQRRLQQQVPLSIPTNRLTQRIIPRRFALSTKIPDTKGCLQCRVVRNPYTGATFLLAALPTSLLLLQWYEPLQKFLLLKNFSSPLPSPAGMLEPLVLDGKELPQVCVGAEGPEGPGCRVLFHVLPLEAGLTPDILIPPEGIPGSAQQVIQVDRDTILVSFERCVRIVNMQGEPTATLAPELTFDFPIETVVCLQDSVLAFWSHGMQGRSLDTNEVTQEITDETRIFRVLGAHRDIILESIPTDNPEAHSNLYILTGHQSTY

Sample 1 — mode: inhibitor; tested at: 1 µM
Structure (SMILES): CC#CC(=O)N1CCC[C@H]1c1nc(-c2ccc(C(=O)Nc3ccccn3)cc2)c2c(N)nccn12
target | assay | inhibition [%]
Mitogen-activated protein kinase kinase kinase kinase 2 (MAP4K2, Homo sapiens, UniProt Q12851) | enzyme activity | 0
Cyclin-dependent kinase 15 (CDK15, Homo sapiens, UniProt Q96Q40) | enzyme activity | 0
cAMP-dependent protein kinase catalytic subunit PRKX (PRKX, Homo sapiens, UniProt P51817) | enzyme activity | 0
Casein kinase I isoform gamma-3 (CSNK1G3, Homo sapiens, UniProt Q9Y6M4) | enzyme activity | 2
Tyrosine-protein kinase JAK3 (JAK3, Homo sapiens, UniProt P52333) |  | 1
MAP kinase-activated protein kinase 2 (MAPKAPK2, Homo sapiens, UniProt P49137) | enzyme activity | 22
Serine/threonine-protein kinase D2 (PRKD2, Homo sapiens, UniProt Q9BZL6) | enzyme activity | 0
Dual specificity tyrosine-phosphorylation-regulated kinase 2 (DYRK2, Homo sapiens, UniProt Q92630) | enzyme activity | 12

Sample 2 — read-out: enzyme activity; mode: inhibitor; tested at: 10 µM
Target: Calcium/calmodulin-dependent protein kinase type II subunit alpha (CAMK2A, Homo sapiens, UniProt Q9UQM7)
Sequence of UniProt Q9UQM7 (whole entry, looked up): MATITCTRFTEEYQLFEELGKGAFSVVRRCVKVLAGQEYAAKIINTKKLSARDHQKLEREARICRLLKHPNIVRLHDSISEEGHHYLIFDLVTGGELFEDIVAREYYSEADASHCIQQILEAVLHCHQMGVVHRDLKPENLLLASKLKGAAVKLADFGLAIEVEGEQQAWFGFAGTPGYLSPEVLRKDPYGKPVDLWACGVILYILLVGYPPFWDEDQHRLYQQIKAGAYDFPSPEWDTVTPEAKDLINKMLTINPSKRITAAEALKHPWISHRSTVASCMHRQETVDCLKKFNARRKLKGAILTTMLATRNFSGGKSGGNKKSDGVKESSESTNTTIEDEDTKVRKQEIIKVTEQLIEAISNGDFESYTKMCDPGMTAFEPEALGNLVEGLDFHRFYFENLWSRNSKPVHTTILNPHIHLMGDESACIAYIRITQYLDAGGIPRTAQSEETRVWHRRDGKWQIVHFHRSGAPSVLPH
Structure (SMILES) | inhibition [%]
CN(C(=O)C(Cl)Cl)c1ccc(O)cc1 | -8
CC(C(=O)O)c1cccc(C(=O)c2ccccc2)c1 (centres unmarked) | -12
CCC(=O)CO | -35
CC(=O)OC[C@H]1O[C@@H](OC[C@H]2O[C@@H](OC(=O)[C@]34CCC(C)(C)C[C@H]3C3=CC[C@@H]5[C@@]6(C)CC[C@H](O[C@@H]7OC[C@H](O)[C@H](O)[C@H]7O[C@@H]7O[C@H](CO)[C@@H](O)[C@H](O)[C@H]7O)C(C)(C)[C@@H]6CC[C@@]5(C)[C@]3(C)CC4)[C@H](O)[C@@H](O)[C@@H]2O)[C@H](O)[C@@H](O)[C@@H]1O[C@@H]1O[C@@H](C)[C@H](O)[C@@H](O)[C@H]1O | 21
Nc1ccn([C@@H]2O[C@H](COP(=O)(O)OP(=O)(O)O)[C@@H](O)[C@H]2O)c(=O)n1 | -1
COc1cc(-c2oc3cc(O)cc(O)c3c(=O)c2O[C@@H]2O[C@H](CO)[C@@H](O)[C@H](O)[C@H]2O)ccc1O | 24
O=C1CC[C@@H](C(=O)N2CSC[C@H]2C(=O)O)N1 | 1

Sample 3 — method: competitive binding panel; tested at: 1 µM; baseline: vehicle
Compound: CN1CCN(C(=O)c2ccc(NC(=O)Nc3ccc(N(C)c4ccnc(Nc5ccc(CS(C)(=O)=O)cc5)n4)cc3)cc2)CC1
target | assay | remaining binding [%]
Phosphatidylinositol 4,5-bisphosphate 3-kinase catalytic subunit alpha isoform (PIK3CA, Homo sapiens, UniProt P42336, M1043I) |  | 100
Homeodomain-interacting protein kinase 1 (HIPK1, Homo sapiens, UniProt Q86Z02) |  | 72
Serine/threonine-protein kinase SBK1 (SBK1, Homo sapiens, UniProt Q52WX2) |  | 65
Serine/threonine-protein kinase Nek4 (NEK4, Homo sapiens, UniProt P51957) |  | 85
Serine/threonine-protein kinase PRP4 homolog (PRPF4B, Homo sapiens, UniProt Q13523) | item: PRP4 | 88
Tyrosine-protein kinase Srms (SRMS, Homo sapiens, UniProt Q9H3Y6) |  | 77

Sample 4 — read-out: ligand displacement; tested at: 10 µM
Target: Alpha-1D adrenergic receptor (ADRA1D, Homo sapiens, UniProt P25100)
Sequence of UniProt P25100 (whole entry, looked up): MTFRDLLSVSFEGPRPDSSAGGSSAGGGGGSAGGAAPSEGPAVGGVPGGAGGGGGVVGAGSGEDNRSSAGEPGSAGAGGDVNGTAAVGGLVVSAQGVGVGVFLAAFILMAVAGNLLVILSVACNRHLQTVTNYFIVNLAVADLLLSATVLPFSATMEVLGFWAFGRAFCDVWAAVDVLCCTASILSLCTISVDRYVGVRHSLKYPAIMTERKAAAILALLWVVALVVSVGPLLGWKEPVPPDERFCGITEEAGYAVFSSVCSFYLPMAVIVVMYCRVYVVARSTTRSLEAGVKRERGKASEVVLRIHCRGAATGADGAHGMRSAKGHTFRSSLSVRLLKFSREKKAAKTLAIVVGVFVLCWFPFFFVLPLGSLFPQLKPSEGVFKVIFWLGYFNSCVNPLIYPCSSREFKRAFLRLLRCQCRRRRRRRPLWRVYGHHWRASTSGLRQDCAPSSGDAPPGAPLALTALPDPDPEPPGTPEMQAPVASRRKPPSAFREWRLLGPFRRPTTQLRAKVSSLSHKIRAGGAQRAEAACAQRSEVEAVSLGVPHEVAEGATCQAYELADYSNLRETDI
Structure (SMILES) | inhibition
O=c1nc(-c2ccccn2)sc2ccccc12 | -17.3%
CN(C)c1ncnc(-c2ccc3nc(Nc4cc(CN5CCN(C(=O)CC(F)(F)F)CC5)ccn4)[nH]c3c2)c1Cl | 20.8%
C[C@H](c1ccc(F)cc1)N(Cc1cccc(C(=O)O)c1)C(=O)c1cnc2ccccc2c1 | 27.3%
O=C(N[C@H]1CCCCC/C=C\C2C[C@@]2(C(=O)O)NC(=O)[C@@H]2C[C@@H](Oc3ccncc3)CN2C1=O)OC1CCCC1 (some centres unmarked) | -19.4%
CN(C)C(=O)c1sc2nc(N3CCC(S(C)(=O)=O)CC3)cc(C(F)(F)F)c2c1N | 7.27%
O=C(NCCCC1CCCCC1)c1ccc(CNC(=O)c2cnn(-c3ccccc3)c2C(F)(F)F)cc1 | 10.1%
NC(=O)c1ccc2nc(-c3ccc(C4(N)CCC4)cc3)c(-c3ccccc3)n2n1 | 37.8%
COc1cc(N[C@@H]2CCCC[C@]2(O)C(F)(F)F)ccc1F | -4.64%
CC[C@H](CC(=O)O)n1c(=O)c2ncccc2n(Cc2cn(C)c3cc(C)cc(C)c23)c1=O | 12.1%
CC1=C(C#N)C(c2ccc3[nH]nc(C)c3c2)C(C#N)=C(C)N1 | 2.5%
Nc1nc(NCc2ccccc2)nc(-c2cccc(CO)c2)n1 | -8.75%
C[C@@H]1CN(c2cc(-c3n[nH]c4ccc(OC5(C)CC5)cc34)ncn2)C[C@H](C)O1 | 3.26%
NS(=O)(=O)c1cc(NC(=O)Cc2ccccc2)ccc1Oc1cccc(Cl)c1 | 2.32%
CNC(=N)NCCC[C@H](NC(=O)[C@H](CC(C)C)NC(=O)NNC(=O)[C@H](Cc1ccccc1)NC(=O)[C@H](CO)NC(=O)[C@H](CC(N)=O)NC(=O)[C@@H](Cc1ccncc1)NC(=O)[C@H](N)Cc1ccc(O)cc1)C(=O)N[C@@H](Cc1ccccc1)C(N)=O | 13.9%
